Measured values of several laboratories.
A part holds a random share of what one study measured. Values joined by “and” are separate records of one study, mostly repeats; a detail may differ.
Chain of UniProt P42336 (whole entry, unmodified, looked up): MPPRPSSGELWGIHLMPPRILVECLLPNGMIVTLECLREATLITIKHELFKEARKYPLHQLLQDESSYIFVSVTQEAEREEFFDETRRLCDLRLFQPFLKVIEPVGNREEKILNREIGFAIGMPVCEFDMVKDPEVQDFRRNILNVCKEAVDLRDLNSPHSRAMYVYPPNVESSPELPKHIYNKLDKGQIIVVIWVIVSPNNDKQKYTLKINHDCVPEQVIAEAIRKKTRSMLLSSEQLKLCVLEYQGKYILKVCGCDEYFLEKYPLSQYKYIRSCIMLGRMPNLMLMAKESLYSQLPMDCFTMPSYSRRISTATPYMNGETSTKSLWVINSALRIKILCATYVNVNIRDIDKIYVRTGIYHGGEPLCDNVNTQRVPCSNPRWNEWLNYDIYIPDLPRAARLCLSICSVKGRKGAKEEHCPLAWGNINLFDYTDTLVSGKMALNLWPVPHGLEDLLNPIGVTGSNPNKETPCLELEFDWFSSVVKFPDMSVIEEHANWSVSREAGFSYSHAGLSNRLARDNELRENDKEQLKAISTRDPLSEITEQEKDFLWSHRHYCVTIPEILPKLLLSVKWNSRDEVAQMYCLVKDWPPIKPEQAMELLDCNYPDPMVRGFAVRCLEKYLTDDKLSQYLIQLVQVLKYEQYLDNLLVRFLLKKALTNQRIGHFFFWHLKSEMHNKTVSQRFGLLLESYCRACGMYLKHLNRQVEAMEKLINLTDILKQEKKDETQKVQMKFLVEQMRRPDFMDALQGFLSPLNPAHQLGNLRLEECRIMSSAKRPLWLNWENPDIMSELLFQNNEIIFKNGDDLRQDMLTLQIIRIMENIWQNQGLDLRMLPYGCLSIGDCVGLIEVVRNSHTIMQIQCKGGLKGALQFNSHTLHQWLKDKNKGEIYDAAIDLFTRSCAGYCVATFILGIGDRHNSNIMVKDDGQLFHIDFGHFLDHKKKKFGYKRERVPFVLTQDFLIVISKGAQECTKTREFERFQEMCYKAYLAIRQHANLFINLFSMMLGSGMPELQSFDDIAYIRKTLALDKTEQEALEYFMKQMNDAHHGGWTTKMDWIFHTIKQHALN
Chain of UniProt Q92918 (whole entry, looked up): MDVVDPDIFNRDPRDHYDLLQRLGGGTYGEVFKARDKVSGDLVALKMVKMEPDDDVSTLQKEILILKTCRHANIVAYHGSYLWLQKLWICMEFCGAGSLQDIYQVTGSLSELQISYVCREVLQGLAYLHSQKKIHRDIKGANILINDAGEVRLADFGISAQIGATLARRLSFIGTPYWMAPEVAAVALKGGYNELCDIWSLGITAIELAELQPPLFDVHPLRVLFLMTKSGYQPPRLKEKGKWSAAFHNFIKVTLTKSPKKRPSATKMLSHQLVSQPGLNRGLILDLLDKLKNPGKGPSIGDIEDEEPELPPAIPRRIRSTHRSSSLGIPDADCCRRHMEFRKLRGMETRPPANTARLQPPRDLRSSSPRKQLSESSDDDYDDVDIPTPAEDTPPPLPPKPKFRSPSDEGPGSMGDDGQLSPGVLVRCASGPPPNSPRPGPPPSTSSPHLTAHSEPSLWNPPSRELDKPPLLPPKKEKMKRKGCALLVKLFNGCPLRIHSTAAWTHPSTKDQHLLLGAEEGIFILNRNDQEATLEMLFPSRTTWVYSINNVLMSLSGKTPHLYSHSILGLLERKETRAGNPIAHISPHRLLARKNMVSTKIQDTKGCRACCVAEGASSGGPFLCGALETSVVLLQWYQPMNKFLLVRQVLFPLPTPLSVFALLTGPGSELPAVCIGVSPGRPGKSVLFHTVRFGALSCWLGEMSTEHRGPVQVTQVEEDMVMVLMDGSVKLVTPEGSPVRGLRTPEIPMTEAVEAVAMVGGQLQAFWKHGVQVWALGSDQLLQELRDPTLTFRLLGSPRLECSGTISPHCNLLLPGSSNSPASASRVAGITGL
Chain of UniProt P23458 (whole entry, looked up): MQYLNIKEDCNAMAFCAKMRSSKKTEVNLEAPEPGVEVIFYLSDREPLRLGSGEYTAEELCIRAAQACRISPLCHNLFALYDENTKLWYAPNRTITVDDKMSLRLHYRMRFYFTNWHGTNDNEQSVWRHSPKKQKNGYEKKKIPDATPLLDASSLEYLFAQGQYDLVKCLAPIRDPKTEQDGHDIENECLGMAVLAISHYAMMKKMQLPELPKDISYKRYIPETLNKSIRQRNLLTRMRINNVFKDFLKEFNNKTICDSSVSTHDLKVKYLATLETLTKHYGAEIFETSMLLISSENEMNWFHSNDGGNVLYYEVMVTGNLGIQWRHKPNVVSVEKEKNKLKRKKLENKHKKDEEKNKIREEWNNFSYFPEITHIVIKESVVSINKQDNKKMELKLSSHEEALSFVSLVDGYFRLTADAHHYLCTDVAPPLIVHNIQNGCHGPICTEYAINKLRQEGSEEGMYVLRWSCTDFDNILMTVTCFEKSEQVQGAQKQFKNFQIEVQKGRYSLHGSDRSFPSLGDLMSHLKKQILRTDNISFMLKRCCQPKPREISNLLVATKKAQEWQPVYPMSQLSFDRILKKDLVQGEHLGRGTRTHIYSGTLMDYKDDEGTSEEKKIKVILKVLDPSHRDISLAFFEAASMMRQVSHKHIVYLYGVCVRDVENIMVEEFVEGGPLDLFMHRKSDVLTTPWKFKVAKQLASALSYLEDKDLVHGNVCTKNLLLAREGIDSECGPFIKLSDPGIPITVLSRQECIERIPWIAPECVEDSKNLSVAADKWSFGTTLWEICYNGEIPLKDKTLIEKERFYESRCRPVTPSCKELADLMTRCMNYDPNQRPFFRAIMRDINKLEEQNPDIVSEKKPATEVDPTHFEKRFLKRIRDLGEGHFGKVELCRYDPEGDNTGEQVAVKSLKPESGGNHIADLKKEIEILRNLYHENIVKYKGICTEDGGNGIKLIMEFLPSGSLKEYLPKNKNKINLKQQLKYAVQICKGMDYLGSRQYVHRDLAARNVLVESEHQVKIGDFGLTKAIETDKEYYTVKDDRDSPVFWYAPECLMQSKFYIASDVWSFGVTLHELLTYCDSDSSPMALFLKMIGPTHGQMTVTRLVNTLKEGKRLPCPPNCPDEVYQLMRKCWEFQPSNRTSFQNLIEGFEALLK
Chain of UniProt Q9UM73 (whole entry, looked up): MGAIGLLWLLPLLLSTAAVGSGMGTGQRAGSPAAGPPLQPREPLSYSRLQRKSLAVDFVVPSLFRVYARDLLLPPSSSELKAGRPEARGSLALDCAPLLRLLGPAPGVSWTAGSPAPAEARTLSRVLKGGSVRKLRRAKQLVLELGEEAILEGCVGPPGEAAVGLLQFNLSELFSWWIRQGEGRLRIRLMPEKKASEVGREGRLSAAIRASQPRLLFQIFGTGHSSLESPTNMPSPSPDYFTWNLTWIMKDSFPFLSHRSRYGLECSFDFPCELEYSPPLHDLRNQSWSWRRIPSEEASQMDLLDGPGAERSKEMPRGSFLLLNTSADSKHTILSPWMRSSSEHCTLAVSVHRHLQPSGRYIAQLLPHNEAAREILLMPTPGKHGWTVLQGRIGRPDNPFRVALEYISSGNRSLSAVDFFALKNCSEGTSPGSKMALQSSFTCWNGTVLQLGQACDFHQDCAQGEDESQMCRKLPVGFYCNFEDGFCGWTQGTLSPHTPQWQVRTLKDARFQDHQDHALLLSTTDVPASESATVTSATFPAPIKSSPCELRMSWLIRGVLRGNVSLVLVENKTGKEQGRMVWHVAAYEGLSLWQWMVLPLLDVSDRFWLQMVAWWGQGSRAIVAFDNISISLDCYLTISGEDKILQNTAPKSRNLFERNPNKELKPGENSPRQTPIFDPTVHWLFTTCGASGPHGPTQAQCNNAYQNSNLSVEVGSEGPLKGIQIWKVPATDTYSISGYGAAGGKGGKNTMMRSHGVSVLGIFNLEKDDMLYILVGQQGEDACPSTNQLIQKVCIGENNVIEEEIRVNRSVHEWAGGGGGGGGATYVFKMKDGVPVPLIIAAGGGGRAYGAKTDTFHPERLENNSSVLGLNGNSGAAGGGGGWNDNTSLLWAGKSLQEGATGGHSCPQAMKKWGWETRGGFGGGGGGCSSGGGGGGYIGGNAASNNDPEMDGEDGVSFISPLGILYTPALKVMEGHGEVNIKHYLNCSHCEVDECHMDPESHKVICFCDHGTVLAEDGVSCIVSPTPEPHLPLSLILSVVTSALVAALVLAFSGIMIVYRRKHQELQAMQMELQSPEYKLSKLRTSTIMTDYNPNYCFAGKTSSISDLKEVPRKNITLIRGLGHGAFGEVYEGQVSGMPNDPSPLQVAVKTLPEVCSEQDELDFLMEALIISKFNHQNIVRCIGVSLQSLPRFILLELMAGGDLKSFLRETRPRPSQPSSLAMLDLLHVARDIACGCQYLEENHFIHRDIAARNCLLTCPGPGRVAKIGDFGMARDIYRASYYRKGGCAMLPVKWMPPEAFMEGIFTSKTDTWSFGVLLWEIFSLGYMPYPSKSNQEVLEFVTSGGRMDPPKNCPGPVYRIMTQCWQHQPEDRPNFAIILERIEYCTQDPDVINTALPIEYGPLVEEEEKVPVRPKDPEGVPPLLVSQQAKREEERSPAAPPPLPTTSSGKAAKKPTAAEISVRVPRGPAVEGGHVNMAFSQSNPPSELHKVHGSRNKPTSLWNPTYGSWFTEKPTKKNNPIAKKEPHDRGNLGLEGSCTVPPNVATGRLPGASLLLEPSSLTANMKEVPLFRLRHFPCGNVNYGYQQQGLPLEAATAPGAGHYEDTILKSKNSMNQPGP

Set 1
Target: Centromere-binding protein 1, full length, His-tagged (CBF1, Saccharomyces cerevisiae, UniProt P17106, residues 1-351)
Chain of UniProt P17106 (whole entry, looked up): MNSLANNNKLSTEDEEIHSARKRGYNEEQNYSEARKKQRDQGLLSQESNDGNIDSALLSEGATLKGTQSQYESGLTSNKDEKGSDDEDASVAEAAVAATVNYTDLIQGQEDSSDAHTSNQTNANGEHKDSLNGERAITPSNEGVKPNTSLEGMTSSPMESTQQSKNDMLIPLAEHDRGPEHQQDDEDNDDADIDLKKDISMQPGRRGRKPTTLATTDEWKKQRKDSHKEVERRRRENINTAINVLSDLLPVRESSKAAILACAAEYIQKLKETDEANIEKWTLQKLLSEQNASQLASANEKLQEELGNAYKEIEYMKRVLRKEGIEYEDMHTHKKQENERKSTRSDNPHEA
Method: competition protein-binding microarray
Molecule type: double-stranded DNA, one strand shown
Medium: in vitro
Tested at: 2 µM
Setting: whole 60-bp probe, lowest competitor level
Added: Pho4 competitor, 0.05 µM
Direction: higher = stronger binding
All sequences stand within: … GTCTTGATTCGCTTGACGCTGCTG
With `CGTATGGAGTTTTCAAACGTGGAACAAAGAACCCAA` the fluorescence intensity was 83.5 a.u.
For `TTTGGTCTTCGATCCCACGTGGCCAACAATATCTTC`, the fluorescence intensity was 1100 a.u.
For `CATACCCAACCTTGTCACAGGACTTAAGATATTTGT`, the fluorescence intensity was 124 a.u.
`CTAACGAAGGTTTTTCACGTGACTTACAAGCCAAGT` gave a fluorescence intensity of 7530 a.u.
With `CGGCTTACTTTGTAACGCGTGGTCGCCTATACACCG` the fluorescence intensity was 99.9 a.u.
For `AAATTACTAAGTTGTTAAGTGGGTGACGCCGTATGA`, the fluorescence intensity was 84.3 a.u.
`GCCAGGGTGCGCTGGCACGCAGGGTAAGAGCCGCAA` gave a fluorescence intensity of 54 a.u.
The fluorescence intensity of `TCGAGGTTCTCTTTCCCCGTGCCAGACTTGGCTTGA` is reported as 68 a.u.

Set 2
Cell line: A-375
Tested at: 100 µM
Time: 36 h
`NC(=O)c1cccnc1` gave a viability of 101%.
For `Cc1ccc(C(=O)c2ccc(CC(=O)O)n2C)cc1`, the viability was 98.5%.
The viability of `CCCCCNC(=N)N/N=C/c1c[nH]c2ccc(OC)cc12` is reported as 0.209%.

Set 3
Cell line: mouse MPNST tumor cells
Method: high-content nuclear imaging
Measured: cell number
Tested at: 10 µM
Time: 12 h
Setting: mean of 2 replicates
Reference: plate mean
Direction: higher = more cells
`CC(C(=O)O)c1cccc(Oc2ccccc2)c1` (stereo not drawn) gave a nuclei count of 2.06 z-score and 1.23 z-score.
For `O=C([C@@H](Cc1cccc(C(F)(F)F)c1)NS(=O)(=O)c1cc(F)c2c(c1)CCNC2)N1CCCC1`, the nuclei count was 2.43 z-score.
The nuclei count of `CC[C@@H]1Cn2c(c3nc(-c4cc(Cl)cc(Cl)c4Cl)nc-3n(C)c2=O)N1` is reported as -0.591 z-score.
`Cc1ccc2c(=O)c3ccccc3n(CCCN)c2c1C` has a nuclei count of -4.18 z-score.

Set 4
SMILES: CN(c1ccnc(CNc2nc(Nc3ccc4c(c3)CC(=O)N4)ncc2C(F)(F)F)n1)S(C)(=O)=O
Read-out: cell-free assay
Method: competition with immobilised ligand
Tested at: 1 µM
Serine/threonine-protein kinase Sgk1 (SGK1, Homo sapiens, UniProt O00141) — remaining binding: 66%.
It gave 80% for remaining binding (Serine/threonine-protein kinase MRCK alpha (CDC42BPA, Homo sapiens, UniProt Q5VT25)).
The remaining binding was 76% (Phosphatidylinositol 4-kinase beta (PI4KB, Homo sapiens, UniProt Q9UBF8)).
The remaining binding was 33% (Mitogen-activated protein kinase kinase kinase kinase 1 (MAP4K1, Homo sapiens, UniProt Q92918)).
It gave 81% for remaining binding (cAMP-dependent protein kinase catalytic subunit alpha (PRKACA, Homo sapiens, UniProt P17612)).
It gave 15% for remaining binding (Death-associated protein kinase 1 (DAPK1, Homo sapiens, UniProt P53355)).
For Serine/threonine-protein kinase LATS1 (LATS1, Homo sapiens, UniProt O95835): remaining binding read 51%.
The remaining binding was 36% (Tyrosine-protein kinase ABL1, non-phosphorylated (ABL1, Homo sapiens, UniProt P00519, T315I)).
Phosphatidylinositol 4,5-bisphosphate 3-kinase catalytic subunit alpha isoform (PIK3CA, Homo sapiens, UniProt P42336, H1047L) — remaining binding: 92%.
The remaining binding was 86% (Serine/threonine-protein kinase 35 (STK35, Homo sapiens, UniProt Q8TDR2)).
The remaining binding was 23% (Serine/threonine-protein kinase PRP4 homolog (PRPF4B, Homo sapiens, UniProt Q13523)).
The remaining binding was 81% (ALK tyrosine kinase receptor (ALK, Homo sapiens, UniProt Q9UM73)).
It gave 20% for remaining binding (Tyrosine-protein kinase JAK1, JH2 (JAK1, Homo sapiens, UniProt P23458)).
It gave 7.3% for remaining binding (Leucine-rich repeat serine/threonine-protein kinase 2 (LRRK2, Homo sapiens, UniProt Q5S007, G2019S)).
For Serine/threonine-protein kinase B-raf (BRAF, Homo sapiens, UniProt P15056, V600E): remaining binding read 68%.
Serine/threonine-protein kinase Chk1 (CHEK1, Homo sapiens, UniProt O14757) — remaining binding: 57%.
Focal adhesion kinase 1 (PTK2, Homo sapiens, UniProt Q05397) — remaining binding: 4.9%.
Phosphatidylinositol 4,5-bisphosphate 3-kinase catalytic subunit alpha isoform (PIK3CA, Homo sapiens, UniProt P42336, E545A) — remaining binding: 90%.

Mixed results
Under “patients with first-degree AV block”, `CC(C)n1cnc(-c2ccc(F)cc2)c1-c1ncc(C(=O)Nc2ccc(N3CCN(C)CC3)cc2)[nH]1` is recorded as 1% (phase 2a trial; idiopathic pulmonary fibrosis patients; 30 mg once daily, adverse event grade 1).
`CC(=O)N[C@@H](Cc1c[nH]c2ccccc12)C(=O)N[C@@H](CCC(=O)C=[N+]=[N-])C(=O)OC(C)C` has a quinolinate level of 609000 a.u. and 850000 a.u. and 876000 a.u. and 790000 a.u. and 527000 a.u. and 661000 a.u. (UPLC-MS/MS; EL4 tumor, C57BL/6 CES1-/- mice, tumor; subcutaneous, 0.3 mg/kg DON equivalent daily, 5 days; higher = more metabolite).
`COc1ccc(-c2c(Nc3ccccn3)[nH]c3c(C4=CCCCC4)c(-c4ccccc4)nn3c2=O)cc1` — result for “percent change from baseline”: -58.7% and -73.8% and -76.5% (LC-MS/MS, measured: S-adenosylmethionine; human, plasma; oral, 50 mg once daily).
